Measured values pooled from the literature.
Compare with care: the assays were run in different laboratories.

Compound	test	system	conditions	how to read	endpoint	value
COc1ccc([C@@H](O)c2cc(-c3ncnc4cc(N5CCOCC5)ccc34)c(F)cc2Cl)nn1		locally advanced rectal cancer patients	100 mg, drug-related adverse events, with: capecitabine and radiotherapy		patients with investigation abnormalities	50%
CCOc1c([C@H](C)n2nc(C)c3c(N)ncnc32)cc(Cl)c(F)c1[C@@H]1CNC(=O)C1	item: QTcF change above 60 ms	previously treated B-cell malignancy	oral, 20 mg once daily, baseline QTcF ≤450 ms	baseline: baseline	patients	2.9%
CNC(=O)c1ccc(-c2cnc3ncc(Cc4ccc5ncccc5c4)n3n2)cc1F	item: Nausea	cancer patients	oral, 600 mg twice daily, all expansion cohorts, grade 3-4		patients with adverse event	5%
C[C@@H](Nc1cc(F)cc(F)c1)c1cc(C(=O)N(C)C)cc2c(=O)cc(N3CCOCC3)oc12	item: Hypotension	advanced solid tumour patients	oral, dose not given, dose finding		patients discontinuing for AE	0%
Cc1cc(NC2CCN(C(=O)OC3CCN(C(=O)/C=C/CN(C)C)C3)CC2)n2ncc(C(C)C)c2n1 (centres unmarked)	Phase I dose escalation CTCAE v4.0, item: abdominal pain	patients with advanced solid tumours	dose not given, TIW dosing any grade		patients with adverse event	36%
O=C(Nc1nc2cccc(-c3ccc(CN4CCS(=O)(=O)CC4)cc3)n2n1)C1CC1	item: anaemia	rheumatoid arthritis patients	oral, 300 mg once daily, 4 weeks, any relatedness		patients with adverse event	0%
COc1cc(Nc2ncc3c(n2)-c2ccc(Cl)cc2C(c2c(F)cccc2OC)=NC3)ccc1C(=O)O	item: weight loss, grade 2	cancer patients, phase 1/2	oral, dose not given, with: pembrolizumab		patients with adverse event	13%
C[C@@H](c1ccc2nccn2c1)n1nnc2ncc(-c3cnn(C)c3)nc21	item: Pneumonitis grade ≥3	EGFR-mutant MET-altered NSCLC	oral, dose not given, study		patients with treatment-related AEs	0%

For quick reference, copied from above:
Compound	test	system	conditions	how to read	endpoint	value
COc1ccc([C@@H](O)c2cc(-c3ncnc4cc(N5CCOCC5)ccc34)c(F)cc2Cl)nn1		locally advanced rectal cancer patients	100 mg, drug-related adverse events, with: capecitabine and radiotherapy		patients with investigation abnormalities	50%
